Results from different studies.
Parts stem from different laboratories: compare values within a part only.

Series 1 — technique: RNA Bind-n-Seq; molecule type: RNA; medium: in vitro; tested at: not given; relative to: input RNA pool; reading: higher = stronger binding
Target: RING finger protein unkempt homolog, zinc fingers 1-6, GST-SBP tag (UNK, Homo sapiens, UniProt Q9C0B0, residues 30-357)
Chain of UniProt Q9C0B0 (30-357, looked up): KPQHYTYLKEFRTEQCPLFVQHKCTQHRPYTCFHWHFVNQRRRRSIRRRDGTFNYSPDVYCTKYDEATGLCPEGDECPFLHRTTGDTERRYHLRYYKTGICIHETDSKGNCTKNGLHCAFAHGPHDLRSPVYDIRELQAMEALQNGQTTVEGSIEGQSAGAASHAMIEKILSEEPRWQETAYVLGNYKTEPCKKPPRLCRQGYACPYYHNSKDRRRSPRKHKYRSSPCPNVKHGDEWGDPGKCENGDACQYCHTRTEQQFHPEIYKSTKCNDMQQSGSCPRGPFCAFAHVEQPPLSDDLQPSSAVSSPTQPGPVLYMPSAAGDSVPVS
Notes: RNA with constant flanks, human and mouse sites, ends assumed
With `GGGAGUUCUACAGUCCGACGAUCGAAGGAUCUAGGAAAUCAUCAAGGGUUAAGGGUUCAGCACCAGAAAUUGAUCCUUCAUCUGAUAGUUCAAAUUUUGUUUGGGAAACAAAAAUCAAAGCAUGGAUGGAUCGUUACGAAGAACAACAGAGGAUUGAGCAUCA` the bound/input enrichment was 0.427 ratio.
`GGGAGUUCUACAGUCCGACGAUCAAUGUGGAAACAGUAGAAUAUAAGAACAUUUGUUUCACAGUAUGGGAUGUUGGUGGUCAAGAUAGAAUUAGGCCUCUCUGGAAGCAUUACUUCCAGAAUACCCAGGGUCUUAUUUUUGUGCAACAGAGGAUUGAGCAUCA` has a bound/input enrichment of 0.854 ratio.
`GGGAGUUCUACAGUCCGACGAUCGUUGCUUAUGAACGUGGCCAAUGUGAUCUGGAACUUAUUAAUGUUUGCAAUGAGAAUUCCCUCUUCAAAAGUCUUUCUCGCUACCUGGUACGUCGAAAGGAUCCAGAAUUGUGGGGCAGCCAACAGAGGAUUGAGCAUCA` gave a bound/input enrichment of 0.192 ratio.
With `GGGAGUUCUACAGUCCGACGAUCCUGAACCUUCAAGAUACUGAAUAUAGCUUAUCUUCUUUUCCUUUUAUGUUAUUAAACUACACAAGCAUUGAGGAUUUCUAUCGGUCUUGUUACAAGAUUUUGAUCCCACAUUUGGUAAUCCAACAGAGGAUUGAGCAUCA` the bound/input enrichment was 0.196 ratio.
With `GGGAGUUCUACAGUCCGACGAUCUUUGUUUAUUUGCUAGUGAGUUUCUUUGUAACGUUGAUUUUAUUAAAUGAUAAUAUUUGGUUAGUAUGUCCUAUGUUAAUAAAAAUGAACAAAAUUAAUUUUGCUAUGUUCAGGUGUCUUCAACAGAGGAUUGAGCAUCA` the bound/input enrichment was 1.21 ratio.
`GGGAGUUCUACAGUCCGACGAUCGACAUAGUUGGUAUACAUUUUCUGCUUCCAACUCAGCUUUGGUGCGAAUCGAGUGAAACUAGAUAUUGAAUAAGACUUGUCAAUAUCAAACGAUUUUUUUGCUGACUGAAUUUGAAAGGGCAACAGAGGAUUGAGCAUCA` has a bound/input enrichment of 0.29 ratio.
`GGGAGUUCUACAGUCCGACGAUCUCAGAUAACGUCACUCGCGCUUGUAGCUUCAUCCGGGAGGCAGCAACGCAAGGAGCCAAAAUAGUUUCUUUGCCGGAAUGCUUUAAUUCUCCAUAUGGAGCGAAAUAUUUUCCUGAAUAUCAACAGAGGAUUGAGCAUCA` gave a bound/input enrichment of 0.691 ratio.
`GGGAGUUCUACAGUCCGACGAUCGCUCUGGAUAUAGAAAUCGCUGCGUACAGAAAACUCCUGGAGGGUGAAGAGACUAGAUUUAGCACAUUUGCAGGAAGCAUCACUGGGCCACUGUAUACACACCGACCCCCAAUCACAAUACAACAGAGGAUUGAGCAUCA` has a bound/input enrichment of 0.96 ratio.

Series 2 — technique: universal PBM; molecule type: double-stranded DNA, one strand shown; medium: in vitro; tested at: 600 nM; reading: higher = stronger binding
Target: Sal-like protein 4, full length isoform A (SALL4, Homo sapiens, UniProt Q9UJQ4, residues 1-1053)
Chain of UniProt Q9UJQ4 (whole entry, looked up): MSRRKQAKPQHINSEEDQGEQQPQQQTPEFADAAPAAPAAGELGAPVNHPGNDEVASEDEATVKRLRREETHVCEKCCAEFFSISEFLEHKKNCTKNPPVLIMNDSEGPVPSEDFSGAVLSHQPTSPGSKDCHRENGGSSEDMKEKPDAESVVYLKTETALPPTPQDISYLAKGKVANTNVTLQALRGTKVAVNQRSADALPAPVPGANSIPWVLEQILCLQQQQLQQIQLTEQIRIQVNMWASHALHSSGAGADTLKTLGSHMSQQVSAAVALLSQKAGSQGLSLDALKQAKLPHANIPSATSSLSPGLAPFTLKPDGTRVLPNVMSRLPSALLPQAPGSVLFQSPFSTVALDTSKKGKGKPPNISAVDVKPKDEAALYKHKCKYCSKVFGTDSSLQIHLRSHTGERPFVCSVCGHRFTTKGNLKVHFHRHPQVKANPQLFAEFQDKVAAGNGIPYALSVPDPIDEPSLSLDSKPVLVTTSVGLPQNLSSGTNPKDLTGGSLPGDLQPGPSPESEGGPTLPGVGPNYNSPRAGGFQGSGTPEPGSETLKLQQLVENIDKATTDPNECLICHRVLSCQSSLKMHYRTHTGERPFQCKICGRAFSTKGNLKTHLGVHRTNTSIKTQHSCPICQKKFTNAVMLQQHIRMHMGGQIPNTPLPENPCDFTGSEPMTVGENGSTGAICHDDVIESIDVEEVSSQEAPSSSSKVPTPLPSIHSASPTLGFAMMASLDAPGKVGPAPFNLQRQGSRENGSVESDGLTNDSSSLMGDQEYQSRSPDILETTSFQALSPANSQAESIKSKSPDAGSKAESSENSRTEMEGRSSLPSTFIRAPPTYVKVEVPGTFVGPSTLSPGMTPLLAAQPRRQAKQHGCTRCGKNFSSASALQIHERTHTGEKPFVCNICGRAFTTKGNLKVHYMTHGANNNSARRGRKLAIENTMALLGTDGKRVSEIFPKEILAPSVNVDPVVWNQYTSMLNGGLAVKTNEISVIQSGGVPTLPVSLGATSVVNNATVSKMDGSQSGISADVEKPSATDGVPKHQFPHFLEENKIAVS
Notes: 8-mer, flanks averaged, mean of replicates
`CTGGCGTC` gave an E-score of -0.268.
The E-score of `AATATAAC` is reported as 0.384.
For `ATTTCGAG`, the E-score was 0.163.
For `AAACCCAA`, the E-score was 0.181.
`CAGCAAGC` has an E-score of -0.249.
`CTCCCCGC` has an E-score of -0.143.
`TTCCGCAA` gave an E-score of 0.0492.
With `CCTAATCC` the E-score was -0.0874.

Series 3 — cell line: HEK-293T/ACE2; effect on: pseudovirus infection; organism: VSV pseudotyped with SARS-CoV-2 spike; tested at: concentration not given; relative to: vehicle-treated
The GFP-positive cells of `CCN[C@@H]1C[C@H](N)[C@@H](O[C@H]2OC(CN)=CC[C@H]2N)[C@H](O)[C@H]1O[C@H]1OC[C@](C)(O)[C@H](NC)[C@H]1O.CCN[C@@H]1C[C@H](N)[C@@H](O[C@H]2OC(CN)=CC[C@H]2N)[C@H](O)[C@H]1O[C@H]1OC[C@](C)(O)[C@H](NC)[C@H]1O.O=S(=O)(O)O.O=S(=O)(O)O.O=S(=O)(O)O.O=S(=O)(O)O.O=S(=O)(O)O` is reported as 82.9%.
With `CCCS(=O)(=O)Nc1ccc(F)c(C(=O)c2c[nH]c3ncc(-c4ccc(Cl)cc4)cc23)c1F` the GFP-positive cells was 93.5%.
`C[C@@H](O)[C@@H]1NC(=O)[C@H](CCCCN)NC(=O)[C@@H](Cc2c[nH]c3ccccc23)NC(=O)[C@H](Cc2ccccc2)NC(=O)[C@@H](NC(=O)[C@H](N)Cc2ccccc2)CSSC[C@@H](C(=O)N[C@H](CO)[C@@H](C)O)NC1=O` gave a GFP-positive cells of 83.8%.
`COC(=O)N[C@H](C(=O)N[C@@H](Cc1ccccc1)[C@@H](O)CN(Cc1ccc(-c2ccccn2)cc1)NC(=O)[C@@H](NC(=O)OC)C(C)(C)C)C(C)(C)C.O=S(=O)(O)O` has a GFP-positive cells of 64.1%.

Series 4 — effect on: enzyme activity; mode: inhibitor; tested at: 20 µM
Target: Replicase polyprotein 1ab, polymerase (rep, Severe acute respiratory syndrome coronavirus 2, UniProt P0DTD1)
The inhibition of `CN(C)C(=O)COC(=O)Cc1ccc(OC(=O)c2ccc(NC(=N)N)cc2)cc1` is reported as 2.32%.
`CN(C)CCCC(=O)Nc1ccc(C(=O)Nc2cccc(Nc3ncc(Cl)c(-c4c[nH]c5ccccc45)n3)c2)cc1` gave an inhibition of 14.3%.
`Fc1ccc2c(CCNCc3cccc(OCC(F)(F)C(F)F)c3)c[nH]c2c1` gave an inhibition of 1.09%.
The inhibition of `COc1cc(C)c2c(Oc3cccc(C(F)(F)F)c3)c(OC)cc(NC(C)CCCN)c2n1` (stereo not drawn) is reported as 1.22%.
With `COCC(=O)Nc1c(I)c(C(=O)NCC(O)CO)c(I)c(C(=O)N(C)CC(O)CO)c1I` (mixture of isomers) the inhibition was -1.24%.
The inhibition of `COc1ccc(Nc2ccn(-c3ccccc3)n2)cc1` is reported as -14%.
For `O=C(Cc1ccc(Cl)c(Cl)c1)N1CCCCC1CN1CCCC1` (stereo not drawn), the inhibition was -0.01%.
With `Cn1c(=O)n(-c2ccc(C(C)(C)C#N)cc2)c2c3cc(-c4cnc5ccccc5c4)ccc3ncc21` the inhibition was -4.67%.
`Nc1nc(-c2ccc(Cl)c(Cl)c2)c(-c2ccncc2)s1` gave an inhibition of 2.34%.
The inhibition of `N=C(N)NCCCCN` is reported as -11.9%.
`CN(C)CCOC(=O)C(c1ccccc1)C1(O)CCCC1` (stereo not drawn) has an inhibition of 4.65%.
`CC(C)(C)NCC(O)c1cc(Cl)c(N)c(Cl)c1` (stereo not drawn) gave an inhibition of -0.21%.
For `COc1cccc2c1C(=O)c1c(O)c3c(c(O)c1C2=O)C[C@@](O)(C(C)=O)C[C@@H]3O[C@H]1C[C@H](N)[C@H](O)[C@H](C)O1`, the inhibition was 61.8%.
The inhibition of `Nc1c2c(nc3ccccc13)CCCC2` is reported as -0.25%.
With `CN1CCCN(C(c2ccccc2)c2ccc(Cl)cc2)CC1` (stereo not drawn) the inhibition was 1.59%.
For `COc1nccc(-c2c(-c3ccc(F)cc3)ncn2C2CCNCC2)n1`, the inhibition was -4.25%.
For `O=C1Nc2ccccc2/C1=C1/Nc2ccccc2C1=O`, the inhibition was 1.35%.
`O=C1NC(=O)[C@@H](c2cn3c4c(cccc24)CCC3)[C@@H]1c1c[nH]c2ccccc12` gave an inhibition of -1.86%.
For `CCCCCCCCCCC(=O)O[C@H]1CC[C@H]2[C@@H]3CCC4=CC(=O)CC[C@]4(C)[C@H]3CC[C@]12C`, the inhibition was -1.48%.
`CCOCCn1c(N2CCCN(C)CC2)nc2ccccc21` has an inhibition of -2.23%.
The inhibition of `C#C[C@]1(O)CC[C@H]2[C@@H]3CCC4=CC(=NO)CC[C@@H]4[C@H]3CC[C@@]21CC` (mixture of isomers) is reported as 5.15%.
With `CC(C)(C)CC(C)(C)c1ccc(O)c(Cc2ccc(Cl)cc2Cl)c1` the inhibition was -0.79%.
For `O=C(OCCN1CCOCC1)C1(c2ccccc2)CCCCC1`, the inhibition was 0.65%.
With `Cc1cc(C(=O)NNCc2ccccc2)no1` the inhibition was -1.23%.
`COc1ccc(O)cc1` gave an inhibition of -2.76%.

Series 5 — effect on: enzyme activity; mode: inhibitor; tested at: 20 µM
Target: Replicase polyprotein 1ab, main protease (rep, Severe acute respiratory syndrome coronavirus 2, UniProt P0DTD1)
`CC[C@]12C=CCN3CC[C@@]4(c5cc([C@@]6(C(=O)OC)C[C@@H]7C[C@@H](C(C)(F)F)C[N@](CCc8c6[nH]c6ccccc86)C7)c(OC)cc5N(C)[C@H]4[C@@](O)(C(=O)OC)[C@@H]1OC(C)=O)[C@@H]32` has an inhibition of -14.4%.
`Cc1ccc(S(=O)(=O)c2ccc([N+](=O)[O-])o2)cc1` has an inhibition of 5.82%.
`C[n+]1c2cc(N)ccc2cc2ccc(N)cc21.Nc1ccc2cc3ccc(N)cc3nc2c1` gave an inhibition of 68%.
`S=C=Nc1cccc(NC(=S)NCCCCNC(=S)Nc2cccc(N=C=S)c2)c1` has an inhibition of 92%.

Series 6 — technique: protein-binding microarray; molecule type: double-stranded DNA, one strand shown; medium: in vitro; tested at: 250 nM; notes: 60-bp whole probe; with: salmon DNA 0.4 mg/ml; relative to: random background probes; reading: higher = stronger binding; all sequences stand within: GCCTAGCAC … GTCTTGATTCGCTTGACGCTGCTG
Target: Interferon regulatory factor 5, full length, phosphomimetic (IRF5, Homo sapiens, UniProt Q13568-2, residues 1-514, K96S/S451D/S453D/S456D/S462D)
With `TCAATACTCTTCCATGGAACTGTGCTA` the log fluorescence was 0.478 z-score.
With `GACGGACTGCGGTATCGGGACGTGCTA` the log fluorescence was 0.0198 z-score.
For `CGACATTTTTATTTGCCTTAGTGCTAG`, the log fluorescence was 0.758 z-score.
For `GACGATTTCAGACCGGAGACGTGCTAG`, the log fluorescence was 0.0638 z-score.
`CATCTCGGGCCGCCGGGCCGGTGCTAG` gave a log fluorescence of -0.76 z-score.
For `AGAGTGCTCATGCTTCTTAGGGTGCTA`, the log fluorescence was -0.39 z-score.
`GACCGTATCGACACTGGGGACGTGCTA` has a log fluorescence of 1.39 z-score.
With `TCAGATATCGGGTATCGATTAGTGCTA` the log fluorescence was 5.54 z-score.

A few entries again (series 4):
`CCOCCn1c(N2CCCN(C)CC2)nc2ccccc21` has an inhibition of -2.23%.
`Fc1ccc2c(CCNCc3cccc(OCC(F)(F)C(F)F)c3)c[nH]c2c1` gave an inhibition of 1.09%.
The inhibition of `CN(C)C(=O)COC(=O)Cc1ccc(OC(=O)c2ccc(NC(=N)N)cc2)cc1` is reported as 2.32%.
For `O=C(OCCN1CCOCC1)C1(c2ccccc2)CCCCC1`, the inhibition was 0.65%.
`CC(C)(C)NCC(O)c1cc(Cl)c(N)c(Cl)c1` (stereo not drawn) gave an inhibition of -0.21%.
`CN(C)CCCC(=O)Nc1ccc(C(=O)Nc2cccc(Nc3ncc(Cl)c(-c4c[nH]c5ccccc45)n3)c2)cc1` gave an inhibition of 14.3%.
For `CCCCCCCCCCC(=O)O[C@H]1CC[C@H]2[C@@H]3CCC4=CC(=O)CC[C@]4(C)[C@H]3CC[C@]12C`, the inhibition was -1.48%.
